Measurements pooled from the literature.
Numbered parts are unrelated; each lists some results of a single study. Substitutions count along the parent as printed.

Block 1
Target: RNA binding protein fox-1 homolog 2, RRM domain, GST-SBP tag (RBFOX2, Homo sapiens, UniProt O43251-10, residues 100-194)
Technique: RNA Bind-n-Seq
Molecule type: RNA
Medium: in vitro
Tested at: 365 nM
Notes: natural RNA segment, single round, ends assumed
Relative to: no-protein control
Direction: higher = stronger binding
Oligonucleotide | RBNS enrichment (R)
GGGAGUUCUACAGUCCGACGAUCGUGGGACUGGCACUAUUUGAGGUUAAGACAAACUGCAUAUGUACUUCAAUUGCUUUGCACUUUUCCGUUUCAGCGGAAGACCUGAAGAGUGGUCAGAACAGAGCCUUUGAUGGAAUUCUCGGGUGCCAA | 0.403
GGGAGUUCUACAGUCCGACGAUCAAAGUAGAGACGAUGGGGACUGUCUCACUGUGACAAGGUAAGAUUUAAGUGAGAUGCACACAAAAAGCUCAGCACAGUGUCUGGCAUCUAAUAUGUGCAGGGCAGAUGUCUGGAAUUCUCGGGUGCCAA | 0.93
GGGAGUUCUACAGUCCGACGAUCACCCAGGACCACAGUGACACACGAAAGGAAACAGGCUAGGUGGUGAACCCUCCAAUUCAGGAAGUGGGAAAAGGAGCCAGGAAAUGUGCUUCUACUUUGCCAGUUAUUUCUGGAAUUCUCGGGUGCCAA | 0.525
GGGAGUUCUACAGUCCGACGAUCCACUAACAUUUUGGGAAGGAGAGGCACAUAACUUUUUUUAACAUUUGGUAACUAGGUUAUGGGCUCUACAUUGUCAGCUACUUGGGAUAUAUAUUUAAUUUUCUUAAAUUUGGAAUUCUCGGGUGCCAA | 0.387
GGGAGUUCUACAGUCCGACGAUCCUUUAUAUGCAUUUUUAGAAUAAUUUGAGAGAUUAAAUGCUGCUUGAAACUAUUAUACUUUGAGUUUUAGAUUGGCCAAAUACAUUAAUGUAGUUAAAUUCAUCUUUAAAUGGAAUUCUCGGGUGCCAA | 1.12
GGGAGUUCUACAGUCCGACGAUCGUCAGUAUUCUGUAAAGUUCCCCUGGCCUAAAUGAUUACUUGCUCUGGGCAAGUGGAUAUUUAUUAGGCUAUUUCAAAGCCACAGCAUAAGAAUGUCAGCCUAGCCACAGUGGAAUUCUCGGGUGCCAA | 0.544
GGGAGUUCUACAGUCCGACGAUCUUGAUAAUUCUUACUAACACAGAUUAGGGUAUAGGCAUCUAGAGAUGCACUGUCCACUGUAAAUACUAUAAUGAGAGCCACAUCUGUAAUUUAAAUGUUUCUAGUAACCAUGGAAUUCUCGGGUGCCAA | 0.412
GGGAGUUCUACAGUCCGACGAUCGCCAGGACCCCAUGCUUCCUUUACUCUGUCUCCUCAUCUCUGUACCUCCCCUGACACCCCAGUCCUGGUUGGCCCUUUCUCCUGCCUUGCCCUGAAGUCUUACCUUCUCCUGGAAUUCUCGGGUGCCAA | 1.4
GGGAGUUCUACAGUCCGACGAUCGCCUUUACGUUCAUCACCUGCUAGAACCUCUCGUAGUCCAUCACCAUUUCUUGGCAUUGGAAUUCUACUGGAAAAAAAUACAAAAAGCAAAACAAAACCCUCAGCACUGUUGGAAUUCUCGGGUGCCAA | 0.554
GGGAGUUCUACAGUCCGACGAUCUACAGUUUUGAUUUAUGUCACAUAAUGUGUUUCUUUUAUAAAGAAAAGUCGUUGCUUUUUAACUUUAUUAUAAGUAAGUUUUUUUUCUGCACCUUUGGCCCCGGUUGCUGUGGAAUUCUCGGGUGCCAA | 0.668
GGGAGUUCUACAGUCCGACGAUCCCAGAAGCAGGUAAAUCUGCCUAUGUCCAGAGCCUUGCUUGCUGCUUGAGUCAUGCCUUACCUGCUAUAAGACAGAGUUUCCGCAUAGGUCAGUUCUAUGUGGUGUGGCAUGGAAUUCUCGGGUGCCAA | 1.16
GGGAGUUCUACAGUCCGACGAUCUCCAAAGGACCAACCUGCCUUACACAUCUCAAGGAAUUCAGCUGUUGAAAUCAUUUGAACUAAUCAAGGAAUAAAUCCUAAUGUUCUGGGACUUUAUUUUCACAUGUUAAUGGAAUUCUCGGGUGCCAA | 0.407

Block 2
Target: RING finger protein unkempt homolog, zinc fingers 1-6, GST-SBP tag (UNK, Homo sapiens, UniProt Q9C0B0, residues 30-357)
Technique: RNA Bind-n-Seq
Molecule type: RNA
Medium: in vitro
Tested at: not given
Notes: RNA with constant flanks, ends assumed
Relative to: input RNA pool
Direction: higher = stronger binding
Construct (chain): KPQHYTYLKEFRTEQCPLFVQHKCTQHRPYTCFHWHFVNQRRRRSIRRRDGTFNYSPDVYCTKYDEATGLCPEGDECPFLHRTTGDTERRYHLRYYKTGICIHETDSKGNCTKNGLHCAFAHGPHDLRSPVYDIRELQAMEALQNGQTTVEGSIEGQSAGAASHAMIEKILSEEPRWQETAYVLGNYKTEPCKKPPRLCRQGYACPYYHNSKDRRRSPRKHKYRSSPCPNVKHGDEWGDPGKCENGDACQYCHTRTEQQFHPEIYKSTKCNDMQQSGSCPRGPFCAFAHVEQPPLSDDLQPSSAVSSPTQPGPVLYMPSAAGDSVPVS
Oligonucleotide | bound/input enrichment [ratio]
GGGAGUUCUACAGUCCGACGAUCUUAUUUAAGCAUUGAGUGCAUUAGAAUUUAUUUACAGAGUGCAUGAUGUUCUGACUCCCGUUCCGAUUUAUUUAAGAAACCAAAUCUCCAGAUUUUUUCAGGACACAGGAUCUUAGACUUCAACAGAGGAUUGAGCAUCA | 2.88
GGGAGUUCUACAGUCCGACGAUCAGAGGAGUUUGGGGGCUUGGCACCUGAAAAUUUAGACCGCAUUCUUAUUAAGUAAAGGAAGAGGCCGGGAGGCCGAGGCGGGCGGAUCAUGAAAUCAGGAGAUCCAGACCGUCCUGGCUACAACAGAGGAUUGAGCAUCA | 0.834
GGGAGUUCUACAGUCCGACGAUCAUAAUGAAAACAGUGAAGGGUUUUUUUUAUGUUUCAUUACUUCUUGGCAUUCUGAAGGAGACCGCUGGAAACACCAUAAUUCACAAAACAGAUUCAGAUGAAAAAGUCACAGUGCUGUUUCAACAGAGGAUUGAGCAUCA | 0.235
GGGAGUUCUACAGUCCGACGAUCUGUGGUGGUAAUGUAAUAUUCAGAGUAUACUUUAAUGUUAGUGAGAAAUUCAGUUCUGCACCGCAGGCUUUUGCUAACUUACCUCUUGAAAGUUUUGUGUCUCUGGGCAGUGGUGGCGAACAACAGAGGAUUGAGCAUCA | 1.48
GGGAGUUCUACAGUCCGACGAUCGAUGAAAAGAUGAGCCCAACAAUUGGAAAACAAUUACUUAAGGGCUCCGCUGAUCCUCUAAACCGUGCUUUCCAUUUGACCUACAACAUGGUUUUGAACUUACUACGUGUAGAAGAAAUUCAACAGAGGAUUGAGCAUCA | 0.153
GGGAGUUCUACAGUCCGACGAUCACAUUUUCCUCCUAAUAAAUUAUCCUUGUGAUGGGCGACAUGGCCAACAACUCAGUUGCGUACCGCGGUGUGAAGAACUCUUUGAAAGAAGCUAACCAUGAUGGAGACUUUGGAAUUACGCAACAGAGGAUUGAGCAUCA | 0.44
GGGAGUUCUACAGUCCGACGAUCACUCCUGUUACCUUGAAAAAUAAAAAUGUUAACAGGAAUGCAGUGUGCUCAUUAUCCCUAACCCGCAAAUCCUACUUUAUGCAAAGCUGUUCUCUUGUUCUGCUGUUUUAAAUGUCCAUGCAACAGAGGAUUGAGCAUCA | 0.203
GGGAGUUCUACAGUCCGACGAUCACUCCAAGACUGUGUUCGGGAGUCCUUGGAACUGUGGUCCAUGGUAAAGUUUUACAGGAGUCCGGACCUGGAAAUGUACAGAAAGAAGUCUCAUCUUCCUUUGACCACGUUAUCAAGGAGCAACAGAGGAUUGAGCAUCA | 0.0861
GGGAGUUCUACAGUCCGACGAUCUCAGUCUAGCUUUUAAUUAAGUUAUUUUGUAUAGCUUAAUUUGUAAAACAUUUUAUGUUUUUCCGAUGCUUUAUUAAAUACAUGGCCAAACCAAAUAACAUCUUUCAGUAAUUAUAGAAUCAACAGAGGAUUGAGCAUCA | 8.78
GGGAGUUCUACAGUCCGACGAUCCGAGAUGCCCGUUCUUACAACCGGUUUCAAAUCGCCACUGUCACCGAAAAAGGUGUUGAAACCGAGGGACCAUUGUCUACAGAGACCAACUGGGAUAUUGCCCACAUGAUCAGUGGCUUUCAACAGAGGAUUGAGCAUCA | 0.0879
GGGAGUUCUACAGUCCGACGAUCGGGUUUGGGGUAGAAGGGAGGGAGGGGGCAGGACAGUGUGGAAUCUCUAGGGUGUAUGGGCCGGCCGGGGGCACAGUUAGUUCUAAGUGGGCUUUUAUGCUAAAAGCCUCUGGGGAUAUCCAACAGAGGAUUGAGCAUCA | 9.68

Block 3
Target: BATF3, bZIP domain (human)
Technique: DHFR protein complementation
Medium: yeast
Notes: single substitutions, most at no-binding floor
Relative to: wild-type JUN-FOS pair
Direction: higher = stronger binding
Starting sequence: JUN, bZIP domain (human); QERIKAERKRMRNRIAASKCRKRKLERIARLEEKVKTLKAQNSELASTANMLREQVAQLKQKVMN; partner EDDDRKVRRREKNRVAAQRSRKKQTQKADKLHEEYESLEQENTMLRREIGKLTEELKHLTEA
Substitution | binding fitness
A57W | 0.147 natural log
T48W | 0.0772 natural log
A49W | 0.133 natural log
R53S | 0.0343 natural log
E54C | 0.0528 natural log
V35I | 0.223 natural log
Q58R | 0.0621 natural log
L38M | 0.216 natural log
M51K | 0.22 natural log
L45D | -0.355 natural log
S43W | 0.148 natural log

Single results of other studies
Substance | target | assay | test system | setting | how to read | endpoint | value
PhoQ, residues 284 288 289 292 302 303 TLASMF | PhoP, residues 12 14 15 18 19 NMSSL (Escherichia coli, UniProt P23836) | Sort-seq, measured: YFP reporter | E. coli | PhoQ-PhoP variant library, with: 10 µM Mg2+ | relative to: high Mg2+ state, higher = stronger signaling | fold induction | 2.14

Some of these lines once more (block 1):
Oligonucleotide | RBNS enrichment (R)
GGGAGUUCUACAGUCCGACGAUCGUGGGACUGGCACUAUUUGAGGUUAAGACAAACUGCAUAUGUACUUCAAUUGCUUUGCACUUUUCCGUUUCAGCGGAAGACCUGAAGAGUGGUCAGAACAGAGCCUUUGAUGGAAUUCUCGGGUGCCAA | 0.403
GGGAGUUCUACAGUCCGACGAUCAAAGUAGAGACGAUGGGGACUGUCUCACUGUGACAAGGUAAGAUUUAAGUGAGAUGCACACAAAAAGCUCAGCACAGUGUCUGGCAUCUAAUAUGUGCAGGGCAGAUGUCUGGAAUUCUCGGGUGCCAA | 0.93
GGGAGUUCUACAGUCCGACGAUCACCCAGGACCACAGUGACACACGAAAGGAAACAGGCUAGGUGGUGAACCCUCCAAUUCAGGAAGUGGGAAAAGGAGCCAGGAAAUGUGCUUCUACUUUGCCAGUUAUUUCUGGAAUUCUCGGGUGCCAA | 0.525
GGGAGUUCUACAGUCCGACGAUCCACUAACAUUUUGGGAAGGAGAGGCACAUAACUUUUUUUAACAUUUGGUAACUAGGUUAUGGGCUCUACAUUGUCAGCUACUUGGGAUAUAUAUUUAAUUUUCUUAAAUUUGGAAUUCUCGGGUGCCAA | 0.387
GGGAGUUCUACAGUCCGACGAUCCUUUAUAUGCAUUUUUAGAAUAAUUUGAGAGAUUAAAUGCUGCUUGAAACUAUUAUACUUUGAGUUUUAGAUUGGCCAAAUACAUUAAUGUAGUUAAAUUCAUCUUUAAAUGGAAUUCUCGGGUGCCAA | 1.12
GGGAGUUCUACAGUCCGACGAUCGUCAGUAUUCUGUAAAGUUCCCCUGGCCUAAAUGAUUACUUGCUCUGGGCAAGUGGAUAUUUAUUAGGCUAUUUCAAAGCCACAGCAUAAGAAUGUCAGCCUAGCCACAGUGGAAUUCUCGGGUGCCAA | 0.544
